Published values pooled from the literature.
Numbers after ± are the reported error. In brackets after ≈: the same amount, converted by molar mass.

| SMILES | organism | test | system | conditions | scale | endpoint | result |
| --- | --- | --- | --- | --- | --- | --- | --- |
| CC[C@H](C)[C@H](NC(=O)[C@@H](CCCNC(=N)N)NC(=O)[C@H](CCCNC(=N)N)NC(=O)[C@H](CCCN)NC(=O)[C@H](Cc1c[nH]c2ccccc12)NC(=O)[C@H](CCCNC(=N)N)NC(=O)[C@@H]1CCCN1C(=O)[C@H](CCCNC(=N)N)NC(=O)[C@@H]1CCCN1C(=O)[C@H](CC(C)C)NC(=O)[C@H](Cc1ccc(O)cc1)NC(=O)[C@@H]1CCCN1C(=O)[C@@H]1CCCN1C(=O)[C@H](CCCCN)NC(=O)[C@H](CC(=O)O)NC(=O)[C@@H](N)C(C)C)C(=O)N[C@@H](Cc1ccc(O)cc1)C(=O)N[C@@H](CC(N)=O)C(=O)N[C@H](CCCNC(=N)N)C(N)=O | Staphylococcus aureus | LC-MS | cell pellet | 8 µg/mL, 30 min | baseline: added | uptake | 23% |
| C=CC(=O)Nc1cccc(Cn2ncc3cnc(Nc4cnn(CCOC)c4)nc32)c1 | Salmonella typhimurium | Ames test | TA102 | concentration not given, with and without S9 | – | mutagenicity | negative |
| N=C(N)c1ccc(-c2ccc(-c3cccs3)o2)cc1 | Salmonella typhimurium | mutagenicity, Ames test | TA1535 | 5 or 10 µM, 48 h, pH 7.4, lower tested concentration, together with: rat liver S9 mix | – | revertant colonies | 11.7 ± 1.5 colonies/plate |
| COc1ccc(CNc2nc(N3CCC[C@H]3CO)ncc2C(=O)NN)cc1Cl | Salmonella typhimurium | – | TA102 | 125 µg/plate, together with: rat liver S9 | – | revertant count | 262 ± 7 |
| Cc1cc(/C=C/C#N)cc(C)c1Oc1nc(NC2CCN(Cc3ccc(S(C)(=O)=O)cc3)CC2)nc2ncccc12 | HIV-1 | – | TZM-bl, NL4-3 wild type | – | baseline: CC50 over EC50 | selectivity index | 12200 |
| CC(=NNC(=N)N)c1nnn(-c2ccc(C#CC3(O)CCCCC3)cc2)c1C | Clostridioides difficile | – | Caco-2, ATCC BAA-1870 | – | baseline: Caco-2 IC50 over MIC | selectivity index | 5.5 |
| Cc1ccccc1CN1CCC(C(=O)N2CCc3ccccc32)CC1 | porcine epidemic diarrhea virus | – | Vero | – | baseline: CC50 over EC50 | selectivity index | > 3 |
| N#Cc1ccc(-c2ccc(-c3ccco3)o2)cc1 | Salmonella typhimurium | mutagenicity, Ames test | TA1535 | 10 or 20 µM, 48 h, pH 7.4, higher tested concentration, together with: rat liver S9 mix | – | revertant colonies | 23.7 ± 2.5 colonies/plate |
| CCC(=O)N(C)c1ccc(Cl)c(Cl)c1 | Salmonella typhimurium | Ames test | TA1535 | 0.50 mg/plate, with rat liver S9 | – | revertant colonies | 7 ± 3.8 revertants/plate |
| COc1ccc(CNc2nc(N3CCC[C@H]3CO)ncc2C(=O)NNC(=O)c2cnc(N3CCC[C@H]3CO)nc2NCc2ccc(OC)c(Cl)c2)cc1Cl | Salmonella typhimurium | – | TA97a | 250 µg/plate, 48 h, together with: rat liver S9 | – | revertant count | 161 ± 31 |
| N=C(N)NCCC[C@@H]1NC(=O)[C@H](CCCNC(=N)N)NC(=O)[C@H](CCCNC(=N)N)NC(=O)[C@H](CCCNC(=N)N)NC(=O)[C@H](Cc2c[nH]c3ccccc23)NC(=O)[C@H](CCCNC(=N)N)NC(=O)[C@H](CCCNC(=N)N)NC(=O)[C@@H](N)CCCCn2cc(nn2)C[C@@H](C(N)=O)NC1=O | Staphylococcus aureus | broth microdilution | ATCC 25923 | 2 h, 37 °C, together with: 50% fetal bovine serum preincubation | – | MIC | 31.2 µg/mL (≈ 22.5 µM) |
| N#Cc1ccc(-c2ccc(-c3ccco3)o2)nc1 | Salmonella typhimurium | mutagenicity, Ames test | TA1535 | 5 or 10 µM, 48 h, pH 7.4, lower tested concentration, together with: rat liver S9 mix | – | revertant colonies | 29.7 ± 3.2 colonies/plate |
| COc1cc2nc(NC3CCN(Cc4ccc(C(N)=O)cc4)CC3)nc(Oc3c(C)cc(C#N)cc3C)c2cc1OC | HIV-1 | – | TZM-bl, NL4-3 wild type | – | baseline: CC50 over EC50 | selectivity index | 10800 |
| N#Cc1ccc(-c2ccc(-c3cccs3)o2)nc1 | Salmonella typhimurium | mutagenicity, Ames test | TA1535 | 5 or 10 µM, 48 h, pH 7.4, lower tested concentration, together with: rat liver S9 mix | – | revertant colonies | 28.7 ± 3.1 colonies/plate |
| c1ccc(CN2CCOCCOCCN(CCCCCCCCCCCCCCN3CCOCCOCCN(CCCCCCCCCCCCCCN4CCOCCOCCN(Cc5ccccc5)CCOCCOCC4)CCOCCOCC3)CCOCCOCC2)cc1 | Staphylococcus aureus | propidium iodide uptake | 1199B | 1 µM or 2 µM | – | membrane permeability | increased |
| N=C(N)c1ccc(-c2ccc(-c3cccs3)o2)nc1 | Salmonella typhimurium | mutagenicity, Ames test | TA1535 | 10 or 20 µM, 48 h, pH 7.4, higher tested concentration, together with: rat liver S9 mix | – | revertant colonies | 24 ± 2.7 colonies/plate |
| Cc1cc(C)cc(S(=O)(=O)c2c(C(=O)NC3CC4(C3)CN(Cc3n[nH]c(=O)[nH]3)C4)[nH]c3ccc(Cl)cc23)c1 | HIV-1 | – | IIIB | – | baseline: CC50 over EC50 | selectivity index | 12400 |
| N#Cc1ccc(-c2ccc(-c3cccs3)s2)cc1 | Salmonella typhimurium | mutagenicity, Ames test | TA1535 | 10 or 20 µM, 48 h, pH 7.4, higher tested concentration, together with: rat liver S9 mix | – | revertant colonies | 26.7 ± 2.1 colonies/plate |
| C/C(=N\OCCCN1CCCCC1)c1ccc(C(F)(F)F)cc1 | Salmonella typhimurium | – | TA98 and TA100 | concentration not given | – | mutagenicity | negative |

Repeated from above:
| SMILES | organism | test | system | conditions | scale | endpoint | result |
| --- | --- | --- | --- | --- | --- | --- | --- |
| Cc1ccccc1CN1CCC(C(=O)N2CCc3ccccc32)CC1 | porcine epidemic diarrhea virus | – | Vero | – | baseline: CC50 over EC50 | selectivity index | > 3 |
| N#Cc1ccc(-c2ccc(-c3ccco3)o2)cc1 | Salmonella typhimurium | mutagenicity, Ames test | TA1535 | 10 or 20 µM, 48 h, pH 7.4, higher tested concentration, together with: rat liver S9 mix | – | revertant colonies | 23.7 ± 2.5 colonies/plate |
